{"data": "Measured values collected from several papers", "note": "± marks the error that the study gave."}
{"SMILES": "C[C@@](O)(C(F)F)[C@H](NC(=O)c1ccc(C#CC#CC2CC2)cc1)C(=O)NO", "tested on": "Burkholderia cepacia", "test": "agar dilution", "test system": "clinical isolates", "measurement": "MIC50", "result": "0.064 µg/mL"}
{"SMILES": "CC[C@H](C)[C@H](NC(=O)[C@H](CCCNC(=N)N)NC(=O)[C@H](CCCCN)NC(=O)[C@H](CC(C)C)NC(=O)[C@H](CC(C)C)NC(=O)CN)C(=O)N[C@@H](CCCCN)C(=O)N[C@H](C(=O)N[C@@H](CC(C)C)C(=O)N[C@@H](CC(C)C)C(=O)NCCCC[C@H](NC(=O)[C@H](CCCCNC(=O)[C@H](CC(C)C)NC(=O)[C@H](CC(C)C)NC(=O)[C@@H](NC(=O)[C@H](CCCCN)NC(=O)[C@@H](NC(=O)[C@H](CCCNC(=N)N)NC(=O)[C@H](CCCCN)NC(=O)[C@H](CC(C)C)NC(=O)[C@H](CC(C)C)NC(=O)CN)[C@@H](C)CC)[C@@H](C)O)NC(=O)[C@H](CC(C)C)NC(=O)[C@H](CC(C)C)NC(=O)[C@@H](NC(=O)[C@H](CCCCN)NC(=O)[C@@H](NC(=O)[C@H](CCCNC(=N)N)NC(=O)[C@H](CCCCN)NC(=O)[C@H](CC(C)C)NC(=O)[C@H](CC(C)C)NC(=O)CN)[C@@H](C)CC)[C@@H](C)O)C(N)=O)[C@@H](C)O", "tested on": "Klebsiella pneumoniae", "test": "checkerboard", "test system": "ATCC 700603", "conditions": "added: polymyxin B", "measurement": "FIC index", "result": 0.312}
{"SMILES": "O=C(O)CC[C@H](NC(=O)N[C@@H](CCCCNC(=O)[C@H](Cc1ccc2ccccc2c1)NC(=O)[C@H]1CC[C@H](CNC(=O)CNC(=O)CNC(=O)CNC(=O)CN2CCN(CC(=O)O)CCN(C(CCC(=O)NCCC[P+](c3ccccc3)(c3ccccc3)c3ccccc3)C(=O)O)CCN(CC(=O)O)CC2)CC1)C(=O)O)C(=O)O (some centres unmarked) [terbium-161 labelled]", "tested on": "PC-3 PIP (PSMA+)", "conditions": "concentration not given", "measurement": "surface-bound activity", "result": "40%"}
{"SMILES": "CCC1(CC)C2CC3CC(C2)CC1(N(C)C)C3", "tested on": "Influenza A virus", "test": "viral replication", "test system": "MDCK, A/FM/1/47 (H1N1)", "measurement": "EC50", "result": "43 ± 12 µM"}
{"SMILES": "CN(C)CCc1c[nH]c2ccc(Br)cc12", "test": "qPCR, item: Arc, Egr-1, Egr-2, Egr-3", "test system": "mouse, prefrontal cortex", "conditions": "ip, 10 mg/kg, 30 min", "measurement": "mRNA level", "result": "increased"}
{"SMILES": "CCCCCCCCC(=O)NCc1ccc(O)c(OC)c1", "tested on": "mAb 5-3H1", "test": "antibody binding, indirect competitive ELISA", "conditions": "added: coating antigen 4-OVA", "measurement": "IC50", "result": "4.04 ng/mL"}
{"SMILES": "CC(C)C1=C(OC(=O)Cc2ccccc2)C(=O)C2=C(C=C[C@H]3C(C)(C)CCC[C@]23C)C1=O", "test": "hydroxyl radical absorbance capacity, fluorometric", "measurement": "HORAC", "result": "0.608 Trolox equivalents"}
{"SMILES": "CCC1(CC)C2CC3CC(C2)CC1(N)C3", "tested on": "Influenza A virus", "test": "viral replication", "test system": "MDCK, A/FM/1/47 (H1N1)", "measurement": "EC50", "result": "7 µM"}
{"SMILES": "COc1ccc(-n2cc(C(=O)N3C[C@]4(OC(=O)c5ccccc5NC(C)=O)CC[C@H](OC)[C@@]56[C@@H]4C[C@@H]([C@@H]35)[C@@]3(O)C[C@H](OC)[C@H]4C[C@@H]6[C@]3(O)[C@H]4OC)nn2)cc1", "test": "Griess", "test system": "ICR mouse, LPS-induced lung injury, BALF", "conditions": "oral, 5, 10, 15 mg/kg", "measurement": "nitric oxide level", "result": "decreased"}
{"SMILES": "Nc1ccc(/C=C/C(=O)N2CCc3c(oc4c(-c5ccc(F)cc5)cc(-c5ccc(C(=O)N6CCC(F)(F)CC6)cn5)cc34)C2)cn1", "test": "western blot", "test system": "mice, Pan02 allograft, tumour", "conditions": "100 mg/kg", "measurement": "PAK4 and p-PAK4 levels", "result": "decreased"}
{"SMILES": "CC(=N)N1CC23C4C5CC5C5C4C4C2C2CC2C4C53C1 (centres unmarked)", "tested on": "Influenza A virus", "test": "viral replication", "test system": "MDCK, H1N1 A/PR/8/34", "measurement": "EC50", "result": "> 100 µM"}
{"SMILES": "C[C@H](NC(=O)[C@@H]1CCCN1C(=O)[C@H](Cc1ccc(O)cc1)NC(=O)CNC(=O)[C@H](CO)NC(=O)[C@H](Cc1ccccc1)NC(=O)[C@@H](N)[C@@H](C)O)C(=O)N[C@@H](Cc1ccccc1)C(=O)O", "tested on": "mu opioid receptor, rat", "test": "ion current, agonist, whole-cell patch clamp", "test system": "Sprague Dawley rat, supraoptic nucleus neurons, brain slice", "conditions": "dose not given", "measurement": "reversal potential", "result": "-105 mV"}
{"SMILES": "N=C(N)N1CC23C4C=CC5C4C4C2C=CC4C53C1", "tested on": "Influenza A virus", "test": "viral replication", "test system": "MDCK, H3N2 A/HK/7/87", "measurement": "EC50", "result": "> 100 µM"}
{"SMILES": "CC(C)CC(C(=O)N1CC2(CC1C#N)C(=O)Nc1ccccc12)N(C)C(=O)c1cc2c(F)cc(F)c(F)c2[nH]1 (centres unmarked)", "tested on": "other human protease families", "test": "inhibitor", "measurement": "IC50", "result": "> 100 µM"}
{"SMILES": "CCCCCCCCCCCCCC(=O)NCC(=O)N[C@@H](CCCNC(=N)N)C(=O)N[C@@H](Cc1c[nH]c2ccccc12)C(=O)N[C@@H](CCCCN)C(=O)N[C@H](C(=O)N[C@@H](Cc1ccccc1)C(=O)N[C@@H](CCCCN)C(=O)N[C@@H](CCCCN)C(=O)N[C@H](C(=O)N[C@@H](CCC(=O)O)C(=O)N[C@@H](CCCCN)C(=O)N[C@H](C(=O)NCC(=O)N[C@@H](CCC(N)=O)C(=O)N[C@@H](CC(N)=O)C(=O)N[C@H](C(=O)N[C@@H](CCCNC(=N)N)C(=O)N[C@@H](CC(=O)O)C(=O)NCC(=O)N[C@H](C(=O)N[C@H](C(=O)N[C@@H](CCCCN)C(=O)N[C@@H](C)C(=O)NCC(=O)N1CCC[C@H]1C(=O)N[C@@H](C)C(=O)N[C@H](C(=O)N[C@@H](C)C(=O)N[C@H](C(=O)N[C@H](C(=O)NCC(=O)N[C@@H](CCC(N)=O)C(=O)N[C@@H](C)C(=O)N[C@@H](C)C(=O)N[C@H](C(=O)N[C@H](C(N)=O)[C@@H](C)CC)[C@@H](C)O)C(C)C)C(C)C)C(C)C)C(C)C)[C@@H](C)CC)[C@@H](C)CC)C(C)C)[C@@H](C)CC)[C@@H](C)CC", "tested on": "K562/MDR", "test": "western blot", "conditions": "2 µM, 16 h", "measurement": "cleaved PARP", "result": "> 40%"}
{"SMILES": "CC/C=C\\C/C=C\\C/C=C\\C/C=C\\C/C=C\\C/C=C\\CCC(=O)Nc1ccn(C2OC(CO)C(O)C2(F)F)c(=O)n1 (centres unmarked)", "tested on": "NCI-H226", "test": "NCI60 screen", "measurement": "CC50", "result": "39.2 µM"}
{"SMILES": "CC[C@H](C)[C@H](NC(=O)[C@@H](NC(=O)[C@H](CC(=O)O)NC(C)=O)[C@@H](C)O)C(=O)N[C@@H](CCCNC(=N)N)C(=O)N[C@@H](CC(C)C)C(=O)N[C@@H](CC(C)C)C(=O)N[C@@H](Cc1ccccc1)C(=O)N[C@@H](CCC(N)=O)C(=O)N[C@@H](CC(C)C)C(=O)N[C@@H](CCSC)C(=O)N[C@@H](CCCNC(=N)N)C(=O)N1CCC[C@H]1C(=O)N1CCC[C@H]1C(=O)N[C@@H](CC(N)=O)C(=O)N[C@@H](CCSC)C(=O)N[C@H](C(=O)N1CCC[C@H]1C(=O)N[C@@H](C)C(=O)N[C@H](C(=O)N[C@@H](CC(N)=O)C(=O)N[C@@H](C)C(N)=O)C(C)C)[C@@H](C)O", "test": "item: HA-29 tetramer", "test system": "antigen-experienced tetramer+ CD4 T cells, healthy adults, HLA-DRB1*0101", "conditions": "dose not given", "measurement": "α4β7+ CCR9− cells", "result": "57.1%"}
{"SMILES": "CC(=N)N1CC23C4CCC5C4C4C2CCC4C53C1", "tested on": "Influenza A virus", "test": "viral replication", "test system": "MDCK, H3N2 A/HK/7/87", "measurement": "EC50", "result": "> 100 µM"}
{"SMILES": "CCCCCc1cc(O)c2c(c1)OC(C)(C)C1CCC(C)=CC21 (centres unmarked)", "test system": "rabbit, α-chymotrypsin glaucoma model", "conditions": "topical, 50 µL of 0.8% w/v, 0.5 h", "scale": "reference: baseline", "measurement": "intraocular pressure", "result": "64.8%"}
{"SMILES": "Cc1ccccc1N1C(=O)/C(=C/c2ccc(OCc3cccc(C(=O)O)c3)cc2)C(=O)NC1=S", "tested on": "LYP (PTPN22), human", "test": "immunoblot", "test system": "Jurkat TAg", "conditions": "0 or 3 min, added: TCR stimulation", "measurement": "lowest effective concentration", "result": "0.4 µM"}
{"SMILES": "N=C(N)N1CC23C4CCC5C4C4C2CCC4C53C1", "tested on": "Influenza A virus", "test": "viral replication", "test system": "MDCK, H1N1 A/PR/8/34", "measurement": "EC50", "result": "≤ 1 µM"}
{"SMILES": "CC(C)C[C@H](NC(=O)[C@H](CCCNC(=N)N)NC(=O)[C@@H](Cc1ccccc1)NC(=O)CN)C(=O)N[C@@H](CC(N)=O)C(=O)N[C@@H](CO)C(=O)N[C@@H](C)C(=O)N[C@@H](CO)C(=O)N[C@@H](CCCNC(=N)N)C(=O)N[C@H](C(=O)N[C@@H](C)C(=O)N[C@@H](Cc1c[nH]cn1)C(=O)NCC(=O)N[C@@H](Cc1ccc(O)cc1)C(N)=O)C(C)C", "tested on": "ATRP receptor 2 (Aplysia californica)", "test": "cAMP, agonist", "scale": "reference: compound over all-L-ATRP", "measurement": "potency ratio", "result": "~600 fold"}
{"SMILES": "CC1CN1c1cc(O)c2nc(N)sc2c1 (centres unmarked)", "tested on": "MLL-ENL leukaemia patient cells", "test system": "human", "conditions": "concentration not given, 10 days", "measurement": "colony formation", "result": "inactive"}
{"SMILES": "COC[C@@H](NC(C)=O)C(=O)NCc1ccc(N=[N+]=[N-])cc1", "tested on": "voltage-gated sodium channel", "test system": "CAD", "conditions": "40 µM, photoaffinity modification, added: UV 5 min then washout", "measurement": "channels in slow-inactivated state", "result": "~20%"}
{"SMILES": "CN(C)C12C3CCC4C3C3C(CCC31)C42", "tested on": "Influenza A virus", "test": "viral replication", "test system": "MDCK, H3N2 A/HK/7/87", "measurement": "EC50", "result": "> 100 µM"}
{"SMILES": "CCN(Cc1ccccc1)C(=O)CCc1nc(CN2CCN(C(=O)Cc3ccc(OC)c(OC)c3)CC2)no1", "test": "cold withdrawal threshold, cold plate", "test system": "mouse CCI model", "conditions": "20 mg/kg, 4 °C, dosing from day 11", "measurement": "onset day", "result": "11 days"}
{"note": "Repeated from above:"}
{"SMILES": "N=C(N)N1CC23C4CCC5C4C4C2CCC4C53C1", "tested on": "Influenza A virus", "test": "viral replication", "test system": "MDCK, H1N1 A/PR/8/34", "measurement": "EC50", "result": "≤ 1 µM"}
{"SMILES": "C[C@@](O)(C(F)F)[C@H](NC(=O)c1ccc(C#CC#CC2CC2)cc1)C(=O)NO", "tested on": "Burkholderia cepacia", "test": "agar dilution", "test system": "clinical isolates", "measurement": "MIC50", "result": "0.064 µg/mL"}
{"SMILES": "Cc1ccccc1N1C(=O)/C(=C/c2ccc(OCc3cccc(C(=O)O)c3)cc2)C(=O)NC1=S", "tested on": "LYP (PTPN22), human", "test": "immunoblot", "test system": "Jurkat TAg", "conditions": "0 or 3 min, added: TCR stimulation", "measurement": "lowest effective concentration", "result": "0.4 µM"}
